Measurements gathered from unrelated publications.
Every numbered part comes from another study and shows a few of its results, in no order. Changes are numbered by the printed parent chain.

Sample 1
Target: Ras GTPase-activating protein-binding protein 1, full length (G3BP1, Homo sapiens, UniProt Q13283)
UniProt Q13283, sequence (whole entry, looked up): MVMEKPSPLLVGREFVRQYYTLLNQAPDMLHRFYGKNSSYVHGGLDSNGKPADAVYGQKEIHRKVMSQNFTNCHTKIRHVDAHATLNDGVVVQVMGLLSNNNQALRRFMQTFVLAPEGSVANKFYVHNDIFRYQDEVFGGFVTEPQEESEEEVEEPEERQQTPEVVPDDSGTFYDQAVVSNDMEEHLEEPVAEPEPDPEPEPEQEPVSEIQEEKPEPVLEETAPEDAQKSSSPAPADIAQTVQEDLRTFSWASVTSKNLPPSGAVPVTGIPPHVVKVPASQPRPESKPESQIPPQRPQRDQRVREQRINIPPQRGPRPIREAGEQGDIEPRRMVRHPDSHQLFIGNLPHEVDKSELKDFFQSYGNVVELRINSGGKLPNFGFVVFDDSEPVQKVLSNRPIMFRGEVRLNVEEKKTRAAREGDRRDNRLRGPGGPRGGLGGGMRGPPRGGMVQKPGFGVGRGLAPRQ
Technique: RNA Bind-n-Seq
Form: RNA
Sample: in vitro
Concentration: 200 nM
Setting: whole 134-nt RNA, ends assumed
With: 150 mM LiCl
Reference: input library
Direction: higher = stronger binding
All molecules: 7-deaza-guanosine replaces G
Sequence | log2 enrichment
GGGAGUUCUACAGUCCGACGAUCCUGUGCUACACAUCGUAUGUACCGAAUCGGGCCCCCCGGGGCCCCCCGGGGCCCCCCGGGGAAAGUAUUAUGUUACGCCGUUCGGAUCUGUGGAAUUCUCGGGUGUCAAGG | -2.15
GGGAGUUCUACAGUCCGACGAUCUCCUGUGCUACACAUCGUAUGUACCGAAUCGGGGAAAAAGGGAAAAAGGGGAAAAAGGGGAAAGUAUUAUGUUACGCCGUUCGGAUCUGCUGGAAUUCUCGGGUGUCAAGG | -0.109
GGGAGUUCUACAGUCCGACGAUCCCUGUGCUACACAUCGUAUGUACCGAAUCGGGGCCCCCCGGGCCCCCCGGCCCCCCGGGGAAAGUAUUAUGUUACGCCGUUCGGAUCUGCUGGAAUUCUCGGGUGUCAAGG | -0.000315
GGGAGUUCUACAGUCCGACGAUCGUUAAUUCCACCAUCCCCAUCACAGCAGAAGUUUUCAAGAAGCAUGGAGUGUACAACCCCAACAAAAUCUUCGGCGUGACGACCCUGGACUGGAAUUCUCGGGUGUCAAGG | 1.03
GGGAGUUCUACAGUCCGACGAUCUCAAGUCCUGUGCUACACAUCGUAUGUACCGAAUCGGGGAAGGGGAAGGGAAGGAAAGUAUUAUGUUACGCCGUUCGGAUCUGCACUUCCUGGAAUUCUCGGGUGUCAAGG | -0.768
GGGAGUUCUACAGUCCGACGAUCUCCUGUGCUACACAUCGUAUGUACCGAAUCGGGUUUUUUUGGGUUUUUUUGGGAAAGGGAAAGUAUUAUGUUACGCCGUUCGGAUCUGCAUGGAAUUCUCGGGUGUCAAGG | 0.643
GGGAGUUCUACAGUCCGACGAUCGCUCGCCCGAGCUCAGAGGUGAUCAAAGACGCCAACUUGUACAUCAGCGGGCUCCCGCGGACCAUGACCCAGAAGGACGUAGAAGACAUGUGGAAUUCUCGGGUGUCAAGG | -1.47
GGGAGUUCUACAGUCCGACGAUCUGGGAGGUGGAUUUUGUUUAUUUUUUUAGCUCAUUUCCAGGGGUGGGAAUUUUUUUUUCAUAUGUGUCAUGAAUAAAGUUGUUUUUGAAAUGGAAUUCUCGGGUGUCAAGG | 0.0842

Sample 2
Target: ABI1, truncated, D143A, DHFR fusion (Arabidopsis thaliana)
Technique: DHFR PCA, deep sequencing
Sample: yeast
Setting: methotrexate growth selection, single substitutions
With: (+)-ABA 4.8 µM
Reference: wild-type fitted maximum
Direction: higher = stronger binding
Parent: PYL1, truncated, DHFR fusion (Arabidopsis thaliana); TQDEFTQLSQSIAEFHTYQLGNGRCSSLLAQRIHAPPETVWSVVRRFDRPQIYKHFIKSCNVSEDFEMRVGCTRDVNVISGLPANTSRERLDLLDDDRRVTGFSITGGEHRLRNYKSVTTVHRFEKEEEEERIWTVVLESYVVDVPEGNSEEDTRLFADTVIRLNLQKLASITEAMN; partner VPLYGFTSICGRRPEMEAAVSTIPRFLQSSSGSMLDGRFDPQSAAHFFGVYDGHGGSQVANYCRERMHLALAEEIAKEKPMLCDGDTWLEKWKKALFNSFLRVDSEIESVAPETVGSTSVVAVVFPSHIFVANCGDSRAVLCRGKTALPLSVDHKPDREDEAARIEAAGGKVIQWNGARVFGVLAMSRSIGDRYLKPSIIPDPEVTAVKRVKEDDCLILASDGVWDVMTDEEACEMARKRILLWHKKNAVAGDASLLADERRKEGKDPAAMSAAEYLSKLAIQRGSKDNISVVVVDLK
Change | relative binding score
L20P | 84.3%
E109P | 0.35%
R49L | 38.4%
P146L | 7.39%
P36W | 5.43%
D48T | 1.94%
D96R | -8.38%
C72I | 51.4%
L166Y | 0.254%
M68Q | 49%
K126W | 61%
I133S | 81.4%
G81Q | 4.07%
R24W | 2.12%
I33T | 0.934%
I162A | -14.9%
R163N | 21.3%
A175V | 59.4%
E128N | 78.2%
R123N | 68.2%
V142Y | 8.81%
V100R | 7.82%
N22D | 80%
L94W | 48.2%
Q167T | 67.6%

Sample 3
Target: Sal-like protein 4, full length isoform B (SALL4, Homo sapiens, UniProt Q9UJQ4-2, residues 1-616)
Technique: universal PBM
Form: double-stranded DNA, one strand shown
Sample: in vitro
Concentration: not given
Setting: 8-mer, flanks averaged, mean of replicates
Direction: higher = stronger binding
Sequence | E-score
TCAGAAGA | -0.0994
AATATGCA | 0.234
CTGCCATC | -0.097
CTTAACAC | 0.0972
AAGACTGA | 0.0996
AAGCAGAT | 0.0146
ACAAGGCC | -0.101
CCGTCAGC | -0.219
CGGGCGTC | -0.215
CTGGGTCA | -0.207
ATGTTCGG | 0.0509
ACAGTTCC | -0.0511
AATGGTCT | 0.0761
CAAGCCTC | -0.28
GTTCAATA | 0.259
TAGCCTAA | 0.0412
TCCTGACA | -0.0293
CCACAGGG | -0.246
ATTGGGAC | -0.0827
ATAACGAC | 0.244
CTGGTGCC | -0.273
CGAGGACC | -0.213

Sample 4
Target: Protein C-ets-1 (ETS1, Homo sapiens, UniProt P14921, residues 1-441, Y397A, full length assumed)
UniProt P14921, sequence (whole entry, unmodified, looked up): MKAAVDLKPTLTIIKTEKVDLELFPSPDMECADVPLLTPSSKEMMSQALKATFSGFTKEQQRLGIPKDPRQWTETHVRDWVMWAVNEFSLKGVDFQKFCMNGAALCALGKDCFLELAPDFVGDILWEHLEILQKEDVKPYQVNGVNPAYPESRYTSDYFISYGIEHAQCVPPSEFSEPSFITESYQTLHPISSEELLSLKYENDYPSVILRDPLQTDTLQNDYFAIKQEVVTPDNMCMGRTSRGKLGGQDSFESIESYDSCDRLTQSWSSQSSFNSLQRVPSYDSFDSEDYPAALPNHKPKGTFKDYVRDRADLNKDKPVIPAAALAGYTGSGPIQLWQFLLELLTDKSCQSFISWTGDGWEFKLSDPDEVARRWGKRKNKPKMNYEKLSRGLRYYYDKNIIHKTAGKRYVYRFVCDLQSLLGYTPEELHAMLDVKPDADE
Technique: protein-binding microarray
Form: double-stranded DNA, one strand shown
Sample: in vitro
Concentration: not given
Setting: k-mer, scored over probes, only values ≥0.25
Direction: higher = stronger binding
Sequence | E-score
ACAAACCC | 0.272
CGTATACA | 0.284
CAAAACGA | 0.307
ACCCGGAA | 0.274
CATGACAA | 0.274
GGAGGGGA | 0.325
TCGTGCAA | 0.255
ATTTGTTG | 0.284
AACCAACA | 0.271
GATTGTCA | 0.349
AATGACAT | 0.285
AGGAAGTA | 0.362
ATTGTCAA | 0.415
CCGGAACG | 0.257
AATATACA | 0.292
CGTACAAA | 0.273

Other studies, line by line
Target: RING finger protein unkempt homolog, zinc fingers 1-6, SBP tag (UNK, Homo sapiens, UniProt Q9C0B0, residues 30-357)
UniProt Q9C0B0, sequence (30-357, looked up): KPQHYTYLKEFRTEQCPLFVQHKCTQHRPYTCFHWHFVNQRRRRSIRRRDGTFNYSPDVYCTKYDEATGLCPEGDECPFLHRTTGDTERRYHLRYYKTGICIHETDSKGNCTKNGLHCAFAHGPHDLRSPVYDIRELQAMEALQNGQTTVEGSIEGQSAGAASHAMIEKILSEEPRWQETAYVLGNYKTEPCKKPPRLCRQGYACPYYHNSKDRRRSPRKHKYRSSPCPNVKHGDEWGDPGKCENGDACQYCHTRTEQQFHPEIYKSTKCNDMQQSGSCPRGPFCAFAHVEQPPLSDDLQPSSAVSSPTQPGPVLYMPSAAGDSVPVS
Technique: RNA Bind-n-Seq
Form: RNA
Sample: in vitro
Concentration: 100 nM
Setting: RNA with constant flanks, ends assumed
Reference: input RNA pool
Direction: higher = stronger binding
Sequence | bound/input enrichment
GGGAGUUCUACAGUCCGACGAUCGUUGUGACCCAUUUAACAUACACAAGAAAUCCGCCAAAAAAAAUUUGCAUGUAAUUGACUCCGAUGAUGCCACUUUUCUGAGUGCUAAAUUUGGAAGACAGCUUGUACCUGGUUGGAAGCCAACAGAGGAUUGAGCAUCA | 0.607 ratio
GGGAGUUCUACAGUCCGACGAUCGGUUGAUGUUCUGAAGAACCACUUGGUGAAAGAAGGUCGAGCCGAUGAAGAAAUUGCGCUCCGAAUUAUCAAUGAGGGUGCUGCCAUCCUUCGGAGAGAGAAAACCAUGACCGAAGCCGACAACAGAGGAUUGAGCAUCA | 0.139 ratio

Some of these lines once more (sample 2):
Change | relative binding score
R49L | 38.4%
P146L | 7.39%
P36W | 5.43%
D48T | 1.94%
